{"data": "Assay results gathered from unrelated publications", "note": "Numbered parts are unrelated; each lists some results of a single study. Several values in a cell are separate wells, animals, samples, runs or records.", "UniProt O15146, sequence (whole entry, looked up)": "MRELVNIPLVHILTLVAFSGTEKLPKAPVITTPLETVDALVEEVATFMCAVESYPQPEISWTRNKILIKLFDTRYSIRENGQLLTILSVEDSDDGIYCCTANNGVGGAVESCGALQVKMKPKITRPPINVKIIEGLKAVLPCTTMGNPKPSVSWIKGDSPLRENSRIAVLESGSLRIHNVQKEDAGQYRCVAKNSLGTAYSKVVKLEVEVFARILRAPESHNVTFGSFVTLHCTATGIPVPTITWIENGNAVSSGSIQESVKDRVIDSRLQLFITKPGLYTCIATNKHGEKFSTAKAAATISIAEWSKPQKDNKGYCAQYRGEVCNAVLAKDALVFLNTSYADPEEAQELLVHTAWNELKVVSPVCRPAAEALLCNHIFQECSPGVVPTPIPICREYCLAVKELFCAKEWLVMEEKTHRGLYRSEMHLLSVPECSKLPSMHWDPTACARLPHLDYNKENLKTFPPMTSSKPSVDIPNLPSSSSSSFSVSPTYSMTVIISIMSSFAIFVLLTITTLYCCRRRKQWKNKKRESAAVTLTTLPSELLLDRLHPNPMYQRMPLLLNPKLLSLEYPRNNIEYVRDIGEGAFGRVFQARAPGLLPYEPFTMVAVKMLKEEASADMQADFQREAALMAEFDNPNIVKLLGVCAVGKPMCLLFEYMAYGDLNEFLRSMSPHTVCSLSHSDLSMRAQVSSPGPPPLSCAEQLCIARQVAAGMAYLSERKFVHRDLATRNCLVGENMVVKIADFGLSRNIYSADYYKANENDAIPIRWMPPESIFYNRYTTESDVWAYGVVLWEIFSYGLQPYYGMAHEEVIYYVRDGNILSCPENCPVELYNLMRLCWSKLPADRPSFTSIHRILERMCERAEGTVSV", "UniProt Q9Y6R4, sequence (whole entry, looked up)": "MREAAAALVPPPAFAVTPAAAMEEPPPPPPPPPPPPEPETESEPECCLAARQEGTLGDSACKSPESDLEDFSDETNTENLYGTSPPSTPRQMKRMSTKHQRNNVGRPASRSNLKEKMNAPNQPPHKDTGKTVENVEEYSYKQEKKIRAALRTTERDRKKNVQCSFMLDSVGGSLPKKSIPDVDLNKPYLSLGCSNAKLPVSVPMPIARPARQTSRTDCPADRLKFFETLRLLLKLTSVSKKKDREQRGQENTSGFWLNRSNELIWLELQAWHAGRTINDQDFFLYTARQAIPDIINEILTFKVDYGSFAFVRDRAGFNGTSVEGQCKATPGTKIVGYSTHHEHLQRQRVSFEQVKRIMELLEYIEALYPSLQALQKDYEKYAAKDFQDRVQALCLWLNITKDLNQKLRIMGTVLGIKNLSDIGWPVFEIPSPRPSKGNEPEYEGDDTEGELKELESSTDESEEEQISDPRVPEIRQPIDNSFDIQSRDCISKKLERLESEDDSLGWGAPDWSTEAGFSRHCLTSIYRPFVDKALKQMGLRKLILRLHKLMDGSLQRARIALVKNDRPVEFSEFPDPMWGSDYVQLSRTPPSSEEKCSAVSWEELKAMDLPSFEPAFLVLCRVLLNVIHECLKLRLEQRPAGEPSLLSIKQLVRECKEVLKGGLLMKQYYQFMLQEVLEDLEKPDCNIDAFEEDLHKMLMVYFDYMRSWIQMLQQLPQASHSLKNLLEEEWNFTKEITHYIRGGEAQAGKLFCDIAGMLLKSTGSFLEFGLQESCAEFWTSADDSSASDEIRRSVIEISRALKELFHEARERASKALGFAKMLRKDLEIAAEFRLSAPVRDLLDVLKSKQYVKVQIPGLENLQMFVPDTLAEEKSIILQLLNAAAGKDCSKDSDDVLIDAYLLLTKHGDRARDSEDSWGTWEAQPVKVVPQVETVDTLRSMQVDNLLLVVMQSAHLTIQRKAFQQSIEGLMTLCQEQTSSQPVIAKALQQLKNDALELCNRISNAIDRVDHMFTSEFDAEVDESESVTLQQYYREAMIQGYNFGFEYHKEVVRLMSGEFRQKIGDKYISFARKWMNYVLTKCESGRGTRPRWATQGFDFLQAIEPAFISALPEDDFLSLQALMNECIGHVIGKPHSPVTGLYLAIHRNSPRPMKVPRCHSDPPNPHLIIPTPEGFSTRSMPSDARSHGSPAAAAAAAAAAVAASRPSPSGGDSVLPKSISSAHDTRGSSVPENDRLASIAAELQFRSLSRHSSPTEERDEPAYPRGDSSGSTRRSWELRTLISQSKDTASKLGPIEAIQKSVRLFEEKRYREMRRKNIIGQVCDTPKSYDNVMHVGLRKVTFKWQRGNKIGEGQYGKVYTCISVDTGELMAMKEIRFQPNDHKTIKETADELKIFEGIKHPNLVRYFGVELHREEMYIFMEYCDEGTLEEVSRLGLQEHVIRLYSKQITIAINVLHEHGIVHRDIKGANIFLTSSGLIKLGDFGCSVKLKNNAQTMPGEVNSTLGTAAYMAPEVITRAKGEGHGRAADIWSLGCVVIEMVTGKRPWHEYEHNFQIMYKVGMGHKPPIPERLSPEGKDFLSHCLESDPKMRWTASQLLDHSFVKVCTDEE", "UniProt P15735, sequence (whole entry, looked up)": "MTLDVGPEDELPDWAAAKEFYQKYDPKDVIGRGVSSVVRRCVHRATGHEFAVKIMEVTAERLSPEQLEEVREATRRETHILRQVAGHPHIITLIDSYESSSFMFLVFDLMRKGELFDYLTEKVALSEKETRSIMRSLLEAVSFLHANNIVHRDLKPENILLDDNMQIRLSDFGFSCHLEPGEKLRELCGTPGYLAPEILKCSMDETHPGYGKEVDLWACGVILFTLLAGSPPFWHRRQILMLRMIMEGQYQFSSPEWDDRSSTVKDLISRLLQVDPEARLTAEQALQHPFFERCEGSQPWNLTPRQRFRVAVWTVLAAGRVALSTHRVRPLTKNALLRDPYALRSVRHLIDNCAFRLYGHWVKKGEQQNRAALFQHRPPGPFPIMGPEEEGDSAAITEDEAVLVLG", "UniProt Q8IWQ3, sequence (whole entry, looked up)": "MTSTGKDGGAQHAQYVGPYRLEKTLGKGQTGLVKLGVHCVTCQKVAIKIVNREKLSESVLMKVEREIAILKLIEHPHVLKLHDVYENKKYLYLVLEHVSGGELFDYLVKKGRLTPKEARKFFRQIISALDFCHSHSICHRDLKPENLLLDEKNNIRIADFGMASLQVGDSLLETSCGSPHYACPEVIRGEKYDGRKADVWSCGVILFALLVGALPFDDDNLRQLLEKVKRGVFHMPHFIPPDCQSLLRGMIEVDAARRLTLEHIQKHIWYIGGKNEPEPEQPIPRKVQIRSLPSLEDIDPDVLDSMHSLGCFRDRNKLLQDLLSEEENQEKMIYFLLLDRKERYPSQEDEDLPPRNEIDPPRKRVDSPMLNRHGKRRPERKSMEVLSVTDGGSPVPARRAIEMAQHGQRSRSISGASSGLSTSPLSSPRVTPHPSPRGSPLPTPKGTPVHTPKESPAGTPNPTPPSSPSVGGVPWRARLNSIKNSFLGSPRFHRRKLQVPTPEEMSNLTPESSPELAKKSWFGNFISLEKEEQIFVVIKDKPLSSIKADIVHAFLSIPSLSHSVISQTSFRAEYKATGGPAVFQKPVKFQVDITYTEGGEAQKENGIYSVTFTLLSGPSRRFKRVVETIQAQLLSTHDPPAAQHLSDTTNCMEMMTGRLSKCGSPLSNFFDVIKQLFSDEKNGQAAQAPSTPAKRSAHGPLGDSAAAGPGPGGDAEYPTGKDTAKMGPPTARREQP", "UniProt P20794, sequence (whole entry, looked up)": "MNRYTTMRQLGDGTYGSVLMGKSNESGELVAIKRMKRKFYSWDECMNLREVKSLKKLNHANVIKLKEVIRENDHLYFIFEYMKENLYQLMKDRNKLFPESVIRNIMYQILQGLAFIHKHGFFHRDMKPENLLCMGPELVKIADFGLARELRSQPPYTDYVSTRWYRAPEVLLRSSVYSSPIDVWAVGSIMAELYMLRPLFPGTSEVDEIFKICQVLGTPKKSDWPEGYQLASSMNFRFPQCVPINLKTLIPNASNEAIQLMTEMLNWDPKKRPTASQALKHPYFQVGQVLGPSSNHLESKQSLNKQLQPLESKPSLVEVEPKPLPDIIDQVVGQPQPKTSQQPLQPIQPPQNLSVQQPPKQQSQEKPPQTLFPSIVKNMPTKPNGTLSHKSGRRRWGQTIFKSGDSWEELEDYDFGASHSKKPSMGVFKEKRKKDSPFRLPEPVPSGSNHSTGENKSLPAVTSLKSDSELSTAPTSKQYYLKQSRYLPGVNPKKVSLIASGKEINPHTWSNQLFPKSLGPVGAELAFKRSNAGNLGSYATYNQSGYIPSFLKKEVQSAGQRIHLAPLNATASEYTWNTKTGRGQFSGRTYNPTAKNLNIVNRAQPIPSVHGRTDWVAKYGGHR", "UniProt Q9UHD2, sequence (whole entry, looked up)": "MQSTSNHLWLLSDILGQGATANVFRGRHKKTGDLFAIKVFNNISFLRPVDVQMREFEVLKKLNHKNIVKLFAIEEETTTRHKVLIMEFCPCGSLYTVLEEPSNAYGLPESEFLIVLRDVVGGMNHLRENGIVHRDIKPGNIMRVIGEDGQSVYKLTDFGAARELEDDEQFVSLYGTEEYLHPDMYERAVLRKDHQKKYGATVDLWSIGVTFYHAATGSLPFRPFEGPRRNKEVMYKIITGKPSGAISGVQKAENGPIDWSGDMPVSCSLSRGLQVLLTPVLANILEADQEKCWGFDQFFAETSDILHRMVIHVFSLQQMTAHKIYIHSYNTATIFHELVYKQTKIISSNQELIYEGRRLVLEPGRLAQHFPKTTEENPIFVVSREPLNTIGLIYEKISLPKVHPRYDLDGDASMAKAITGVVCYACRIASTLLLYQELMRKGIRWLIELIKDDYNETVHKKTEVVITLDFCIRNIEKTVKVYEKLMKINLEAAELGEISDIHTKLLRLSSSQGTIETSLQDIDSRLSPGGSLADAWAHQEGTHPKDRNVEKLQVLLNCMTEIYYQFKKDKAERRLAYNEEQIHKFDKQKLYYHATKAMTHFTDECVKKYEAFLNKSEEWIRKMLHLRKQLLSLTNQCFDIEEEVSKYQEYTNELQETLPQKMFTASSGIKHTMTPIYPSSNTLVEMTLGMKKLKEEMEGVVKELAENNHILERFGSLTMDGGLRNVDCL"}
{"data": "Series 1", "cell line": "mouse MPNST tumor cells", "technique": "high-content nuclear imaging", "measured": "cell number", "concentration": "10 µM", "time": "12 h", "setting": "mean of 2 replicates", "relative to": "plate mean", "reading": "higher = more cells"}
{"Compound": "NC[C@@H]1O[C@H](O[C@H]2[C@@H](O)[C@H](O[C@@H]3[C@@H](O)[C@H](N)C[C@H](N)[C@H]3O[C@H]3O[C@H](CN)[C@@H](O)[C@H](O)[C@H]3N)O[C@@H]2CO)[C@H](N)[C@@H](O)[C@@H]1O", "nuclei count": "0.284 z-score"}
{"Compound": "CNC(=O)Nc1ccc2c(c1)CC[C@@]21OC(=O)N(CC(=O)N(Cc2ccc(F)cc2)[C@@H](C)C(F)(F)F)C1=O", "nuclei count": "3.75 z-score and 6.49 z-score"}
{"Compound": "CCc1cccc(N(C)C(=N)Nc2cccc3ccccc23)c1", "nuclei count": "4.81 z-score"}
{"Compound": "C1=Cc2ccccc2C(=C2CCN(CCCCc3nn[nH]n3)CC2)c2ccccc21", "nuclei count": "1.17 z-score"}
{"Compound": "CC(=O)c1cc(-c2ccccc2OCC2CC2)c2ncccn12", "nuclei count": "0.191 z-score"}
{"Compound": "CCCCC(=O)N(Cc1ccc(-c2ccccc2-c2nnn[nH]2)cc1)[C@H](C(=O)O)C(C)C", "nuclei count": "0.784 z-score and 1.39 z-score"}
{"Compound": "O=C(Nc1cccc2cccnc12)c1ccc(N2C(=O)[C@@H]3[C@H](C2=O)[C@@H]2C=C[C@H]3C2)cc1", "nuclei count": "1.25 z-score"}
{"data": "Series 2", "SMILES": "O=C(NCc1ncc(C(F)(F)F)cc1Cl)c1ccc2c(c1)C1(CCS(=O)(=O)CC1)[C@H](C1CC1)N2S(=O)(=O)c1ccc(F)cc1", "read-out": "cell-free assay", "technique": "competition with immobilised ligand", "concentration": "1 µM"}
{"target": "PIK3CA (Homo sapiens, UniProt P42336)", "remaining binding": "100%"}
{"target": "MUSK (Homo sapiens, UniProt O15146)", "remaining binding": "100%"}
{"target": "MAPK7 (Homo sapiens, UniProt Q13164)", "remaining binding": "99%"}
{"target": "CSNK2A1 (Homo sapiens, UniProt P68400)", "remaining binding": "66%"}
{"target": "DCLK2 (Homo sapiens, UniProt Q8N568)", "remaining binding": "100%"}
{"target": "HIPK2 (Homo sapiens, UniProt Q9H2X6)", "remaining binding": "81%"}
{"target": "CDK15 (Homo sapiens, UniProt Q96Q40)", "remaining binding": "100%"}
{"target": "RIPK4 (Homo sapiens, UniProt P57078)", "remaining binding": "93%"}
{"target": "MAK (Homo sapiens, UniProt P20794)", "remaining binding": "100%"}
{"target": "MAPK12 (Homo sapiens, UniProt P53778)", "remaining binding": "100%"}
{"target": "LATS1 (Homo sapiens, UniProt O95835)", "remaining binding": "91%"}
{"target": "EGFR (Homo sapiens, UniProt P00533, del747-750/T751S)", "remaining binding": "100%"}
{"target": "ROCK1 (Homo sapiens, UniProt Q13464)", "remaining binding": "94%"}
{"data": "Series 3", "SMILES": "CO[C@@H]1[C@@H](OC(N)=O)[C@@H](O)[C@H](Oc2ccc3c(O)c(NC(=O)c4ccc(O)c(CC=C(C)C)c4)c(=O)oc3c2C)OC1(C)C", "species": "FVB/129P2 mice, Brca1-/- Trp53-/- TNBC allograft", "route": "intraperitoneal", "dose": "100 mg/kg twice daily"}
{"setting": "37 days", "tumour volume": "3330 mm3 and 762 mm3"}
{"setting": "27 days", "tumour volume": "187 mm3 and 624 mm3 and 2660 mm3 and 1220 mm3"}
{"setting": "31 days", "tumour volume": "654 mm3 and 1990 mm3 and 402 mm3"}
{"setting": "45 days", "tumour volume": "2540 mm3"}
{"setting": "7 days", "tumour volume": "159 mm3 and 756 mm3 and 180 mm3 and 1350 mm3 and 988 mm3 and 1450 mm3 and 887 mm3"}
{"setting": "13 days", "tumour volume": "786 mm3 and 1230 mm3 and 2810 mm3 and 282 mm3 and 658 mm3 and 164 mm3"}
{"setting": "43 days", "tumour volume": "1510 mm3"}
{"data": "Series 4", "SMILES": "CN1CCN(C(=O)c2ccc(NC(=O)Nc3ccc(N(C)c4ccnc(Nc5ccc(CS(C)(=O)=O)cc5)n4)cc3)cc2)CC1", "technique": "competitive binding panel", "concentration": "1 µM", "relative to": "vehicle"}
{"target": "MAP3K4 (Homo sapiens, UniProt Q9Y6R4)", "remaining binding": "4%"}
{"target": "PHKG2 (Homo sapiens, UniProt P15735)", "remaining binding": "100%"}
{"target": "MUSK (Homo sapiens, UniProt O15146)", "remaining binding": "11%"}
{"target": "GRK4 (Homo sapiens, UniProt P32298)", "remaining binding": "4.5%"}
{"target": "BRSK2 (Homo sapiens, UniProt Q8IWQ3)", "remaining binding": "100%"}
{"target": "TBK1 (Homo sapiens, UniProt Q9UHD2)", "remaining binding": "55%"}
